Experimental data gathered from unrelated publications.
Each numbered part is a random draw from the data of one study; scales do not carry over between parts.

Block 1 — technique: RNA Bind-n-Seq; molecule type: RNA; sample: in vitro; concentration: 365 nM; relative to: no-protein control; direction: higher = stronger binding
Target: RNA binding protein fox-1 homolog 2, RRM domain, GST-SBP tag (RBFOX2, Homo sapiens, UniProt O43251-10, residues 100-194)
Notes: natural RNA segment, single round, ends assumed
Target sequence (chain): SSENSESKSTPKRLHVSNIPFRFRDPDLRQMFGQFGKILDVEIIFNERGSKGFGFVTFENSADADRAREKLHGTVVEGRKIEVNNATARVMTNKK
Sequence | RBNS enrichment (R)
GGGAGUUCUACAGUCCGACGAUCUCUAACUACUUAUAAUAGUUUAUAAGCUCCUUAUGAAGAAAACCAGCAUUCUCUAUUUCUAAAGCCCACUUAUAACCCAGCAUACAAAUAGAUCUUAACAGUUUAUUAUUUGGAAUUCUCGGGUGCCAA | 1.3
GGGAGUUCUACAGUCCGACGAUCGAAUUAUAAAUAUCUCCUUUUUCCUCGCUUCAUGCUAACUUGUCUCUAGAUAAAAUCUUAUUUCUUCAUACAUUGGACCACAAGGCAUAAAGAAGGUAGCUCAGCGCCACUGGAAUUCUCGGGUGCCAA | 0.274
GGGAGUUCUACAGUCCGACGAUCCUCUGUUCUUUCUAUAAGUACAGAGUGAAAUAAAAGUGAGAAGAAGAUUCAAUCGUAACUGUGUCAACAGUAUUGUGAAGUGAUCAUUUCUUGUAAAACUUGUAAAUAAAUGGAAUUCUCGGGUGCCAA | 0.239
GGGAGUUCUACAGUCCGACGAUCUGCUUUACAAGUGACCAGCCAUCUUGCAGGCUUCAUGCUUCUGAGAGCCUUACUUAGAAGAUGCUGCUGGAGUCACAGCUGAGGAGAGGAAUACUAUCAACAUGGACUAUUGGAAUUCUCGGGUGCCAA | 0.535
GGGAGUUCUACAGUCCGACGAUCAGCUUUUAUUUCAUUACAAUUAAAGAUGUCUCAUGUACUUGGAAAAGUGAGCAUAUUUUUUUUUGUAUUUGAAUUUCAUAUCAAGCUUAAUGUCAGUGACAUUUUUUUAUUGGAAUUCUCGGGUGCCAA | 0.851
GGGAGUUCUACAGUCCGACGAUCAUCUGUGAGAGACUGACUAUAGCAGAAGCGGAUUCAAAGAAGACAGACCUUGACCAAAGAUGCUGAAAUACAGUGUUGGGAUCCUUGUACUCUGGAACCAUGCCAUCACUUGGAAUUCUCGGGUGCCAA | 0.279
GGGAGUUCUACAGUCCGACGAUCCCAGUCCAGGACUUUGGAACCCUGGUCUCAUUCACCCCAAAUAUACUUCUUGCUGAUCAUGCGUUGUGGGGGUGUGGGGGGACCCAUGCAGAGGAGGUUCUCUUCAUAAGUGGAAUUCUCGGGUGCCAA | 0.221
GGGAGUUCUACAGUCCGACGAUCAUGACCCUUCCUUUUUACCUCAUUUAUUUGGUACUUUCCCCACACAGUCCUUUAUCCACCUGGAUUUUUAGGGAAAAAAAUGAAAAAGAAUAAGUCACAUUGGUUCCAUGUGGAAUUCUCGGGUGCCAA | 0.289
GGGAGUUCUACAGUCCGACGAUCCAUCUCUCGCUUGCUUAAAGUCUUGAGGAAAAUGUUCCUGUUUGCUGCGUGGGCCUGGGUGGGAUGUCUGUUGGCUCUGUUGUGUUUACUCACCGGUUUGUACAUUAUCUUGGAAUUCUCGGGUGCCAA | 1.6
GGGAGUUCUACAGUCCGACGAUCAAAAGAAAUCUUUACUUUCCUUGUUUUAUCAUUAUAAAAAUAAAGUAUUUUGCUAGUAUGGAAACAACCUUUGUAUUUGACGUCACCUGGGGUCUGCUGGCAGAAGUUUGUGGAAUUCUCGGGUGCCAA | 0.555
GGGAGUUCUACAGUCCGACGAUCAGUAUAGUCAAAUCAAUUGCAUAAGUAAUUUAUUUUCUACUUCUUAUGUCUGUGAUAAUUGCUUUGACUUUAUUAUCAUGUAUUAAACAGUAAUAACAAUGGGACUUAGAUGGAAUUCUCGGGUGCCAA | 0.502
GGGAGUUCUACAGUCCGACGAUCAAUCACCUGAAGAAGGUGAACCCCUGCUAACCGGGGUGAAGAUGAGCCACCUUCCCAUCCCAGCACCAGAGACUGCAGUUUCCCUCAGUCCUCCACCCUCCCACUGCCGCUGGAAUUCUCGGGUGCCAA | 0.652

Block 2 — technique: protein binding microarray; molecule type: double-stranded DNA, one strand shown; sample: in vitro; concentration: not given; relative to: not given; direction: higher = stronger binding
Target: Histone acetyltransferase KAT6A, winged helix 1, GST fusion (KAT6A, Homo sapiens, UniProt Q92794, residues 1-85)
Notes: 8-mer, flanks averaged, mean of 2 arrays, mostly near background
Residues (chain): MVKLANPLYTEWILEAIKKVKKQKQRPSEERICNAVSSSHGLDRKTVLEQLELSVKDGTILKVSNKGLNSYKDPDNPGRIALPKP
Sequence | E-score
GGTGTAGA | -0.123
GGCATGAC | 0.106
GTCAAAGA | -0.215
GGGGTGTA | 0.0133
AGTGGACG | -0.0225
CAACCCTA | -0.235
AAGATTAC | 0.071
CGACACTC | 0.0785
GCGCATAC | 0.376
CCAAGACC | -0.136
GACTAAAA | -0.0477
AACCCCAC | -0.154
TCAACCCA | -0.134
TCATGAAA | -0.115
CATTTCGG | -0.118
CCCGGCTA | 0.215
AGGCCATG | -0.169
CCTCTGTA | -0.0257
AGGGTACG | -0.0391
CGTAACTC | 0.0829
ACAAAGAC | -0.181
AGTTGGTC | -0.112
TCAGCTGA | -0.121
GCCACATA | 0.0236
ATGTTCAA | -0.0701

Block 3 — technique: RNA Bind-n-Seq; molecule type: RNA; sample: in vitro; concentration: 200 nM; notes: whole 134-nt RNA, ends assumed; together with: 150 mM LiCl; relative to: input library; direction: higher = stronger binding; all molecules: 7-deaza-guanosine replaces G
Target: Ras GTPase-activating protein-binding protein 1, full length (G3BP1, Homo sapiens, UniProt Q13283)
UniProt Q13283, sequence (whole entry, looked up): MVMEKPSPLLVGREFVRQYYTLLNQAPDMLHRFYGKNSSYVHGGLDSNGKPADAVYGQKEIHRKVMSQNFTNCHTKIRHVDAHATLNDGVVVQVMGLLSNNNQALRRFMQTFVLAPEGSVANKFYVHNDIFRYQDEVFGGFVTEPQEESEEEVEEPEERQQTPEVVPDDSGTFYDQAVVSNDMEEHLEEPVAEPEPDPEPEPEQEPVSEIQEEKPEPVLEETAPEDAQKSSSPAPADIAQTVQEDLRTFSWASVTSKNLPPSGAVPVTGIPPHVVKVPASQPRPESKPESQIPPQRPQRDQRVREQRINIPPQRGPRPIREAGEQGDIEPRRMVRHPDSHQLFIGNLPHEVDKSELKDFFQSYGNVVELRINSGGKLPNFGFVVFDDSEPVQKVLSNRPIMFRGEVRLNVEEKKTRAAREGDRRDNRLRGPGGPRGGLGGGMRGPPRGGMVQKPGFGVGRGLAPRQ
Sequence | log2 enrichment
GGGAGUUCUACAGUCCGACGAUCUGUGCUACACAUCGUAUGUACCGAAUCGGGUUUUUUUGGGUUUUUUUGGGGUUUUUUUGGGGAAAGUAUUAUGUUACGCCGUUCGGAUCUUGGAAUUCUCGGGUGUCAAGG | 1.83
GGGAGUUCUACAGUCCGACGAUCUGGCCCUGGUGGCAUGCCGGGAGGAAGAGGUGGCCUCAUGGAUCGUGGUGGUCCCGGUGGAAUGUUCAGAGGUGGCCGUGGUGGAGACAGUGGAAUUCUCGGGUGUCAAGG | 0.538
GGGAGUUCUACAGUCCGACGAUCAGUCCUGUGCUACACAUCGUAUGUACCGAAUCGGGGUUUUGGGGUUUUGGUUUUGGGAAAGUAUUAUGUUACGCCGUUCGGAUCUGCACUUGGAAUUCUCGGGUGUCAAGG | -1.43
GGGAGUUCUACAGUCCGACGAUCAGUCCUGUGCUACACAUCGUAUGUACCGAAUCGGGAGGGAAAAAAAGGGAAAAAGGGAAAGUAUUAUGUUACGCCGUUCGGAUCUGCACUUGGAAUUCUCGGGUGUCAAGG | -0.417
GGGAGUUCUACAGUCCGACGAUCUCCUGUGCUACACAUCGUAUGUACCGAAUCGGGGAGGGGUUUUUGGGGAAAAAAAGGGGAAAGUAUUAUGUUACGCCGUUCGGAUCUGCAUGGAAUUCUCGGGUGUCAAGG | 0.366
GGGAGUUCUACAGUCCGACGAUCCAAGUCCUGUGCUACACAUCGUAUGUACCGAAUCGGUUUUGGGGUUUUGGUUUUGGAAAGUAUUAUGUUACGCCGUUCGGAUCUGCACUUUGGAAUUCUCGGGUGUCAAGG | -1.35
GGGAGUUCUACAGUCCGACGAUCCCUGUGCUACACAUCGUAUGUACCGAAUCGGGUUUUUUUGGGUUUUUUUGGUUUUUUUGGGAAAGUAUUAUGUUACGCCGUUCGGAUCUGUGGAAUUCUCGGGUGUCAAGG | 0.72
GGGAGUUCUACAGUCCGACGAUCUCCUGUGCUACACAUCGUAUGUACCGAAUCGGGGAGGGGAAAAAGGGGAAAAAAAGGGGAAAGUAUUAUGUUACGCCGUUCGGAUCUGCAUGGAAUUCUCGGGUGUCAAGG | 0.626
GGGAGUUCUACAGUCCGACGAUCAGUCCUGUGCUACACAUCGUAUGUACCGAAUCGGGUUUUGGGUUUUGGGGUUUUGGGGAAAGUAUUAUGUUACGCCGUUCGGAUCUGCACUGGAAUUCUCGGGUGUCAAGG | 0.521
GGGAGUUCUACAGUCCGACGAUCGUCCUGUGCUACACAUCGUAUGUACCGAAUCAAACCCCCCCAAACCCCCAAACCCAAAAAAGUAUUAUGUUACGCCGUUCGGAUCUGCACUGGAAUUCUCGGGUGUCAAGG | -0.000707
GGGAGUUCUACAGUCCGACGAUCGUCCUGUGCUACACAUCGUAUGUACCGAAUCAAACCCCCAAAUUUUUUUAAACCCAAAAAAGUAUUAUGUUACGCCGUUCGGAUCUGCACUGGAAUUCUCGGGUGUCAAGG | 1.54

Block 4 — technique: universal PBM; molecule type: double-stranded DNA, one strand shown; sample: in vitro; concentration: 600 nM; direction: higher = stronger binding
Target: Sal-like protein 4, full length isoform A (SALL4, Homo sapiens, UniProt Q9UJQ4, residues 1-1053)
UniProt Q9UJQ4, sequence (whole entry, looked up): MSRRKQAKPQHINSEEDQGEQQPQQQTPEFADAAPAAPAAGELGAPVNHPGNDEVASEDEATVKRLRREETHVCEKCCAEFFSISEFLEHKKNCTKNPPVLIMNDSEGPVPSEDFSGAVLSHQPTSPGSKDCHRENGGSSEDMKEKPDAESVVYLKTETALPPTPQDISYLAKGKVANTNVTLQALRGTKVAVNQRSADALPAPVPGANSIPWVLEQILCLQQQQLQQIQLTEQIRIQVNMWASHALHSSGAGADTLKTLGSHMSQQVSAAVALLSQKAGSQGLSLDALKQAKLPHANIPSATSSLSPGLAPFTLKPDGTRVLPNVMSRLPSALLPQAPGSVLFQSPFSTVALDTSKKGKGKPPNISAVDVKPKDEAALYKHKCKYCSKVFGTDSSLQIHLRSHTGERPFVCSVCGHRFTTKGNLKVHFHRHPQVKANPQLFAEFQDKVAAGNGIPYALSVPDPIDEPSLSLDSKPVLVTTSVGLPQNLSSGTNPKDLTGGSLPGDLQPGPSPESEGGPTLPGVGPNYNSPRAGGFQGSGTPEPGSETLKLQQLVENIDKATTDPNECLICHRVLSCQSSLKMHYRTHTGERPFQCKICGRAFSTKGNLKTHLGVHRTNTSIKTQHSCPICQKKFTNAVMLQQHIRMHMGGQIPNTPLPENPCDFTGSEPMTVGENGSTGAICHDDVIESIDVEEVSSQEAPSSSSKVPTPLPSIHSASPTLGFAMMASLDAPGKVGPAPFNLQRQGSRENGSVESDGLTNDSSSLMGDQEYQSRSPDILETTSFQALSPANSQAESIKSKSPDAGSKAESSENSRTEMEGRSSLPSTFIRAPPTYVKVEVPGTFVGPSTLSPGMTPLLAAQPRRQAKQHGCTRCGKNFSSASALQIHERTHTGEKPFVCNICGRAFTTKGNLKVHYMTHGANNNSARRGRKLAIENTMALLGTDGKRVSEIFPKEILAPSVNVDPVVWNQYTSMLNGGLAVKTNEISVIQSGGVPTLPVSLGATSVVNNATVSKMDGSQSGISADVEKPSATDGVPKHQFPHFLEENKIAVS
Notes: 8-mer, flanks averaged, mean of replicates
Sequence | E-score
CATGCGAA | 0.0903
AACCGCAT | 0.0322
CAGACGAC | -0.213
CCCGTAAG | -0.155
CCATCTCC | -0.0526
AACCGGCG | -0.321
AAGTAAGG | 0.132
CGGACCCA | -0.22
AATATAGT | 0.377
GGGAGCTA | -0.233
ATCAGGAC | -0.0525
ATTCCAGG | -0.0776
GGAAGGCC | -0.268
GTGTAAAA | 0.247
AGGTTAAG | -0.0228
GGTGAAAA | 0.0848
CGCTTCAC | -0.129
ACCTGTTC | -0.0479
AGGCGGAG | -0.121
CAGCCCCC | -0.338
CACACTCG | -0.0906
CCATTCAC | -0.116
GCGGTATA | 0.0746
CCCGAGCC | -0.284
AAAAACGG | -0.0234

Block 5 — technique: protein-binding microarray; molecule type: double-stranded DNA, one strand shown; sample: in vitro; concentration: not given; direction: higher = stronger binding
Target: Max-binding protein MNT, bHLH-zipper, MAX partner unstated (MNT, Homo sapiens, UniProt Q99583, residues 220-300)
Notes: k-mer, scored over probes, only values ≥0.25
Target sequence (chain): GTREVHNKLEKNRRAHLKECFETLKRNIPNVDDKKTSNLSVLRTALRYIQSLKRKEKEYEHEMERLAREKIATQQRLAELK
Sequence | E-score
ATGCCTCG | 0.262
GATCACGC | 0.335
CATGCTCA | 0.392
CACGTGGA | 0.495
CCTCGCAC | 0.262
CGTTTACC | 0.269
CACACCCC | 0.257
GCACATGC | 0.47
GCGTGAAC | 0.308
ACATGCCT | 0.341
ATCTCATG | 0.297
CGTGTCGA | 0.305
ATGCGGTG | 0.255
CACGCGCC | 0.432
AGACCATG | 0.31
GCATGGTA | 0.389
AGTCCACG | 0.363
CATGTAAC | 0.326

Block 6 — technique: aptamer microarray, sandwich; molecule type: DNA with 2'F-ANA; sample: in vitro; concentration: 200 nM; together with: Cy3 exosite-II aptamer, 400 nM; direction: higher = stronger binding; sequence: GGTTGGTGTGGTTGG
Target: Prothrombin, mature alpha-thrombin (F2, Homo sapiens, UniProt P00734)
Notes: whole 15-mer aptamer, many near background
Modification | mean fluorescence intensity [a.u.]
2'F-ANA at 1 2 3 5 6 7 9 10 13 14 15 | 53.2
2'F-ANA at 2 6 9 10 11 12 13 14 15 | 77.8
2'F-ANA at 2 3 4 6 7 9 10 12 | 286
2'F-ANA at 1 4 5 7 13 14 15 | 74.2
2'F-ANA at 4 9 13 | 209
2'F-ANA at 1 2 6 9 10 11 13 | 50.3
2'F-ANA at 3 5 6 8 9 11 12 13 14 15 | 59.6
2'F-ANA at 2 3 4 7 9 10 13 15 | 211
2'F-ANA at 4 6 13 | 188
2'F-ANA at 2 3 4 7 9 11 14 | 274
2'F-ANA at 1 3 4 7 8 11 | 263
2'F-ANA at 2 5 7 8 15 | 77.8
2'F-ANA at 1 2 4 6 8 10 13 14 15 | 57.5
2'F-ANA at 1 2 4 6 10 11 12 14 | 63.8
2'F-ANA at 1 2 3 6 7 12 | 415
2'F-ANA at 1 3 4 6 7 10 12 | 81.9
2'F-ANA at 2 3 4 5 6 7 9 11 14 | 50.3
2'F-ANA at 1 3 12 14 | 136
2'F-ANA at 1 3 4 12 14 | 89.8
2'F-ANA at 2 3 4 5 6 9 10 12 15 | 55.7
2'F-ANA at 3 7 11 13 15 | 972
2'F-ANA at 4 5 10 13 14 | 39.7
2'F-ANA at 2 4 7 8 9 10 11 12 14 | 65.7
2'F-ANA at 3 5 6 8 10 12 15 | 57.8
2'F-ANA at 2 5 6 8 11 12 13 | 109

For quick reference, copied from above (block 2):
Sequence | E-score
GCCACATA | 0.0236
AGTGGACG | -0.0225
CGTAACTC | 0.0829
CAACCCTA | -0.235
CCTCTGTA | -0.0257
CCAAGACC | -0.136
ATGTTCAA | -0.0701
GGCATGAC | 0.106
GACTAAAA | -0.0477
AACCCCAC | -0.154
GGTGTAGA | -0.123
TCAGCTGA | -0.121
ACAAAGAC | -0.181
GGGGTGTA | 0.0133
TCATGAAA | -0.115
